Measurements of several laboratories.
Numbered parts are unrelated; each lists some results of a single study.
UniProt P42336, sequence (whole entry, unmodified, looked up): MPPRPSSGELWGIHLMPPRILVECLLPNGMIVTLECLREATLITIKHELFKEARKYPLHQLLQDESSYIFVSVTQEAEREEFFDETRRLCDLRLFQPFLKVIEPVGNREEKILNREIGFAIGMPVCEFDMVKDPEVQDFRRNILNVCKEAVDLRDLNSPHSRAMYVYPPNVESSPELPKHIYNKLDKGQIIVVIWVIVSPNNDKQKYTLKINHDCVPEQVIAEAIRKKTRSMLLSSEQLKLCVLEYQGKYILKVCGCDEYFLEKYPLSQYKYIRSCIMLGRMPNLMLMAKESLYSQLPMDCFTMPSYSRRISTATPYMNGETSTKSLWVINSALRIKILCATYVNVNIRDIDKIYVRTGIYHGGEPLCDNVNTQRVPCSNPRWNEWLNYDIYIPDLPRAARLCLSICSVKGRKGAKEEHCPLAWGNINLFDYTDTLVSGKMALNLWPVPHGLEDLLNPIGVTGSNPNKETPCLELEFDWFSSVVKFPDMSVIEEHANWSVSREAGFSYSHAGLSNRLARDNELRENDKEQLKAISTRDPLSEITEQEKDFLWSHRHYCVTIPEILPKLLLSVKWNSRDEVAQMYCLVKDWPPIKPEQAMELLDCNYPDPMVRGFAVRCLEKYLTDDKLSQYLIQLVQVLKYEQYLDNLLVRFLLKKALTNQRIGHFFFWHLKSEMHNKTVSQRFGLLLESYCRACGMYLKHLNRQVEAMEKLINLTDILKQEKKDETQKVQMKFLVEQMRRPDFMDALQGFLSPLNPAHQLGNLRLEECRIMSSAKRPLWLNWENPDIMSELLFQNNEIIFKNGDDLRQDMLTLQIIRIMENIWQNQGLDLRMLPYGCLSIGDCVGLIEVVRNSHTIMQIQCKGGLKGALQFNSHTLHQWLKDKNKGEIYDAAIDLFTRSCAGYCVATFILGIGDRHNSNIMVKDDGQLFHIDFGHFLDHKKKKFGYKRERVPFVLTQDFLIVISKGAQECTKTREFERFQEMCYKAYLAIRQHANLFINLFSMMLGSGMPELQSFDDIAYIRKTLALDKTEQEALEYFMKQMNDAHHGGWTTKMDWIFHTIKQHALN
UniProt Q86UE8, sequence (whole entry, looked up): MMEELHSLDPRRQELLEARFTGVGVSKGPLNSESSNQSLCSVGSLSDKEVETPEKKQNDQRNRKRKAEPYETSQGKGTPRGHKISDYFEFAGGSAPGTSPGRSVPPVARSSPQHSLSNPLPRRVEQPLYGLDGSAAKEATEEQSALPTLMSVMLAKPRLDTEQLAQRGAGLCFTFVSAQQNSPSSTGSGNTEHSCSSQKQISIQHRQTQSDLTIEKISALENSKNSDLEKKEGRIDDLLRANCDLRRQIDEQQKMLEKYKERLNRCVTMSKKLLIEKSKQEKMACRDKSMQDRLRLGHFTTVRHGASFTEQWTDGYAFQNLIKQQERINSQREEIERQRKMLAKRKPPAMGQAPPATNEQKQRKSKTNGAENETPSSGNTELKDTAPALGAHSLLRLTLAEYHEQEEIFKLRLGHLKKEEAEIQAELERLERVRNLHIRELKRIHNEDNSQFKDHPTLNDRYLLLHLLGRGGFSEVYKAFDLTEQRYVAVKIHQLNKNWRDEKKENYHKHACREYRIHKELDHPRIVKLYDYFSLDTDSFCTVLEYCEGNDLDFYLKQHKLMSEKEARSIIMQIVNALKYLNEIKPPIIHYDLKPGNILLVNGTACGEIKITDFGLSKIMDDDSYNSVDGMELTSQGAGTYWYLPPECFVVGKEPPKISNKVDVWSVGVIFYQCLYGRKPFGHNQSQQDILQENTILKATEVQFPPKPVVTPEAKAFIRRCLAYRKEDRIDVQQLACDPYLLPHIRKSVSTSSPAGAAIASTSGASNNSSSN
UniProt O43293, sequence (whole entry, looked up): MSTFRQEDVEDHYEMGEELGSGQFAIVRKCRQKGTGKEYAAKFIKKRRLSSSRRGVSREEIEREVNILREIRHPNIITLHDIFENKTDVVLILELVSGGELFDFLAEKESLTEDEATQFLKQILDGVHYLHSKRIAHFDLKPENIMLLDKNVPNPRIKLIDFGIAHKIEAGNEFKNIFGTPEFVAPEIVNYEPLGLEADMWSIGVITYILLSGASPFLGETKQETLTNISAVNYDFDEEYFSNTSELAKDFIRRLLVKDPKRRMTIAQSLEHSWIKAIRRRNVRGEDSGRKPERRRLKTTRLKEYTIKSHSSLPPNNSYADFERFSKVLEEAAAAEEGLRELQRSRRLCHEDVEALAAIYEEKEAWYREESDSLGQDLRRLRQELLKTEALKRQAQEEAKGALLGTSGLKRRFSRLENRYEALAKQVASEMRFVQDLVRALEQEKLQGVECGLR
UniProt P10721, sequence (whole entry, unmodified, looked up): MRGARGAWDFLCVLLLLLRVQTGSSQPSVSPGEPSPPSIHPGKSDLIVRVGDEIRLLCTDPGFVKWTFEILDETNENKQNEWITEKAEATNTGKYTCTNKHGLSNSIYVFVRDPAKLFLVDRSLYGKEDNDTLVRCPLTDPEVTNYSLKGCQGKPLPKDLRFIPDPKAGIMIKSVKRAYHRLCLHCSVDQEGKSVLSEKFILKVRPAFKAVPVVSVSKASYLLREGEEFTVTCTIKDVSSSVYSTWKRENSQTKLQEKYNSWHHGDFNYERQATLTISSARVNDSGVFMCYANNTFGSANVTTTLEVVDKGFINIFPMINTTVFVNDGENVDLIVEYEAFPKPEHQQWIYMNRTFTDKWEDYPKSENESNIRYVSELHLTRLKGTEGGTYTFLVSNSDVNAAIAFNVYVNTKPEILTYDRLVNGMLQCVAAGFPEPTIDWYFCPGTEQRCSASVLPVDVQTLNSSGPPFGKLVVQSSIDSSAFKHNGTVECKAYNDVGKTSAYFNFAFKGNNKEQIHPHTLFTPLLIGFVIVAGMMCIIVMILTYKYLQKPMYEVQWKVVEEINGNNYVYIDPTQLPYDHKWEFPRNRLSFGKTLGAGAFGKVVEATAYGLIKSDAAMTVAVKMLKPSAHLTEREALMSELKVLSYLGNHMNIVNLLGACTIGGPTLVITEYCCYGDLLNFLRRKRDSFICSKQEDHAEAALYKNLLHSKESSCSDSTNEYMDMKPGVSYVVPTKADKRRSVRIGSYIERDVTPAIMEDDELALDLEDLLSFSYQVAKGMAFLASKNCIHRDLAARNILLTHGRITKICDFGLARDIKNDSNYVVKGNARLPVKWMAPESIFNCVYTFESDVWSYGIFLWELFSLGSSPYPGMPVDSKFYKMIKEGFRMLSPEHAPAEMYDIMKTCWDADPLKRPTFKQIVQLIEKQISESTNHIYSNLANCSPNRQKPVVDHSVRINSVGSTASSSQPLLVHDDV
UniProt P15735, sequence (whole entry, looked up): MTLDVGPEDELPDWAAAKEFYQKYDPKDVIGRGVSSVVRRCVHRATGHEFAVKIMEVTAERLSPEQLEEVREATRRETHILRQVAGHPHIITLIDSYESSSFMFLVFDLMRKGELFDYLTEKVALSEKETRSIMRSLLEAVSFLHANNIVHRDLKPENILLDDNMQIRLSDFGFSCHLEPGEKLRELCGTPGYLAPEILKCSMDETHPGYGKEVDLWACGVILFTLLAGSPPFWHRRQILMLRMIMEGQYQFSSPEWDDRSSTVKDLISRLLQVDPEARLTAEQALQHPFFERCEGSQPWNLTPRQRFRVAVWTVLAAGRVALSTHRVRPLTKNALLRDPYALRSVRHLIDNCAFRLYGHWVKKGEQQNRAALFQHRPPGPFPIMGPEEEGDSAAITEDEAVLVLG
UniProt P07947, sequence (whole entry, looked up): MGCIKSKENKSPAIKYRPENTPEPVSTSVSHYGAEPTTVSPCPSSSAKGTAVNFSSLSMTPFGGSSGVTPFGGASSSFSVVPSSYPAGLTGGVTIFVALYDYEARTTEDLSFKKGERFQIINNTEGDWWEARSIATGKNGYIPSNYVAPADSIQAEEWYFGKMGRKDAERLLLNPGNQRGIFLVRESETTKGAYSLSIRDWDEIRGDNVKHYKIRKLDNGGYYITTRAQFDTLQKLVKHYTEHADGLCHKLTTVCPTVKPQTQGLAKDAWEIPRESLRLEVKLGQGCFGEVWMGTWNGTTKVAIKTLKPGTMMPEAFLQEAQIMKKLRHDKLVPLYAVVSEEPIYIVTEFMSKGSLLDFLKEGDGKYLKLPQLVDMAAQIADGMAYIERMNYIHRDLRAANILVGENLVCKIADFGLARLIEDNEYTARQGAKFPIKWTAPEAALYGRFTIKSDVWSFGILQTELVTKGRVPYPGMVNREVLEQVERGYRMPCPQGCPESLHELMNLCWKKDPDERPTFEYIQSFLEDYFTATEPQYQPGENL

Study 1
Target: Calcium/calmodulin-dependent protein kinase type II subunit alpha (CAMK2A, Homo sapiens, UniProt Q9UQM7)
UniProt Q9UQM7, sequence (whole entry, looked up): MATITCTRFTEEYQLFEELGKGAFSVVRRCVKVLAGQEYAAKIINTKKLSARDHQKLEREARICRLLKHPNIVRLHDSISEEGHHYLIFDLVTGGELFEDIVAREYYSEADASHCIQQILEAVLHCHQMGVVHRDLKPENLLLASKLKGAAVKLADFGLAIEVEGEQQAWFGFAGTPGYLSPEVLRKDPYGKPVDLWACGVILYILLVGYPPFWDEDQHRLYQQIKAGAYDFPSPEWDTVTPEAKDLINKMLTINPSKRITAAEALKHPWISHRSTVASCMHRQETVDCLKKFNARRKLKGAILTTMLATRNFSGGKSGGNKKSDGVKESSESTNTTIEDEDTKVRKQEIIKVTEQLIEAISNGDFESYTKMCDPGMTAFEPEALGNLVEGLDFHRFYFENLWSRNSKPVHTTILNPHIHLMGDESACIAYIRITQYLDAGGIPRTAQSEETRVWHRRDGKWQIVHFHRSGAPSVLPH
Effect on: enzyme activity
Mode: inhibitor
Tested at: 10 µM
| Structure (SMILES) | inhibition |
| --- | --- |
| COc1cc(O)c2c(c1)O[C@H](c1cc(O)cc(O)c1)CC2=O | -63% |
| COc1cccc(N(C)C(=S)Oc2ccc3c(c2)CCCC3)n1 | -3% |
| O=C(Cn1cnnn1)N[C@@H]1C(=O)N2C(C(=O)O)=C(CSc3nncs3)CS[C@H]12 | -3% |
| CC1=C(C(=O)OCCN(Cc2ccccc2)c2ccccc2)C(c2cccc([N+](=O)[O-])c2)C(P2(=O)OCC(C)(C)CO2)=C(C)N1 (stereo not drawn) | -4% |
| COc1ccc(CCC(=O)c2c(O)cc(O[C@@H]3O[C@H](CO)[C@@H](O)[C@H](O)[C@H]3O[C@@H]3O[C@@H](C)[C@H](O)[C@@H](O)[C@H]3O)cc2O)cc1O | 9% |
| CCN[C@H]1CN(CCCOC)S(=O)(=O)c2sc(S(N)(=O)=O)cc21 | -2% |
| O=C(O)c1ccccc1 | -5% |
| CCOC(=O)N1CCC(=C2c3ccc(Cl)cc3CCc3cccnc32)CC1 | -2% |
| C[C@@H]1O[C@@H](OC[C@H]2O[C@@H](OCCc3ccc(O)c(O)c3)[C@H](O)[C@@H](O[C@@H]3O[C@@H](C)[C@H](O)[C@@H](O)[C@H]3O)[C@@H]2OC(=O)/C=C/c2ccc(O)c(O)c2)[C@H](O)[C@H](O)[C@H]1O | -8% |
| CC(C)(C)c1ccc(CN2CCN(C(c3ccccc3)c3ccc(Cl)cc3)CC2)cc1 (stereo not drawn) | -11% |
| CSc1nc2cc(Cl)c(Oc3cccc(Cl)c3Cl)cc2[nH]1 | -6% |

Study 2
Species: mouse
Matrix: microsomes or S9
Tested at: 2 µM
Time: 0.5 h
| Structure (SMILES) | remaining compound |
| --- | --- |
| Cc1noc(C)c1S(=O)(=O)N1CCCC(Oc2nc(C(C)C)nc3c2CCOCC3)C1 (stereo not drawn) | 9.05% |
| CCCS(=O)(=O)c1nc2ccc(NS(=O)(=O)c3ccc(F)c(Cl)c3)cc2s1 | < 1% |
| COc1ccc([C@H]2Oc3cc(OC)cc(OC)c3C[C@H]2O)cc1 | 0.481% |
| CCc1ccc(NC(=O)N2Cc3c(sc4c3CCCC4)-n3cccc3C2C(C)C)cc1 (stereo not drawn) | 29.6% |
| O=S1(=O)N=C(N2CCCCC2)c2ccccc21 | 89.3% |
| CC(=O)N1N=C(Cn2nc(C)cc2C)OC1c1ccccc1OCc1cccc(Br)c1 (stereo not drawn) | 56.8% |
| CCc1nc(NCCCn2ccnc2)c2c3c(sc2n1)CCCC3 | 24.7% |
| CC1(NC(=O)c2ccc3cc[nH]c3n2)CC=CCC1 (stereo not drawn) | 3.44% |
| COc1ccccc1CC(=O)c1ccc(O)c(O)c1O | 16.2% |
| CCn1ncc(NC(=O)c2cc(C)nc3c2c(C)nn3CC)c1C | 46.4% |
| Cn1ccnc1COC(=O)c1cc(C(C)(C)C)n[nH]1 | 0.0785% |

Study 3
Structure (SMILES): Cc1nc(Nc2ncc(C(=O)Nc3c(C)cccc3Cl)s2)cc(N2CCN(CCO)CC2)n1
Mode: inhibitor
| target | setting | inhibition [%] |
| --- | --- | --- |
| Serine/threonine-protein kinase tousled-like 2 (TLK2, Homo sapiens, UniProt Q86UE8) | 10 µM | < 50 |
| High affinity nerve growth factor receptor (NTRK1, Homo sapiens, UniProt P04629) | 10 µM | < 50 |
| ALK tyrosine kinase receptor (ALK, Homo sapiens, UniProt Q9UM73) | 10 µM | < 50 |
| Serine/threonine-protein kinase tousled-like 1 (TLK1, Homo sapiens, UniProt Q9UKI8) | 10 µM | < 50 |
| Homeodomain-interacting protein kinase 1 (HIPK1, Homo sapiens, UniProt Q86Z02) | 10 µM | < 50 |
| Bone morphogenetic protein receptor type-1B (BMPR1B, Homo sapiens, UniProt O00238) | 10 µM | 84 |
| Tyrosine-protein kinase Fer (FER, Homo sapiens, UniProt P16591) | 10 µM | < 50 |
| Serine/threonine-protein kinase BRSK2 (BRSK2, Homo sapiens, UniProt Q8IWQ3) | 10 µM | < 50 |
| MAP/microtubule affinity-regulating kinase 3 (MARK3, Homo sapiens, UniProt P27448) | 1 µM | < 50 |
| Rho-associated protein kinase 2 (ROCK2, Homo sapiens, UniProt O75116) | 1 µM | < 50 |
| Macrophage-stimulating protein receptor (MST1R, Homo sapiens, UniProt Q04912) | 1 µM | < 50 |
| Death-associated protein kinase 3 (DAPK3, Homo sapiens, UniProt O43293) | 10 µM | < 50 |
| Phosphorylase b kinase gamma catalytic chain, liver/testis isoform (PHKG2, Homo sapiens, UniProt P15735) | 10 µM | < 50 |

Study 4
SMILES: CS(=O)(=O)c1cc(C2(NC(=O)c3cncc4c3cnn4-c3ccc(F)cc3)CC2)ccn1
Effect on: cell-free assay
Method: competition with immobilised ligand
Tested at: 1 µM
| target | remaining binding |
| --- | --- |
| Tyrosine-protein kinase JAK3, JH1 (JAK3, Homo sapiens, UniProt P52333) | 75% |
| Ribosomal protein S6 kinase alpha-4, C-terminal kinase domain (RPS6KA4, Homo sapiens, UniProt O75676) | 81% |
| Cyclin-G-associated kinase (GAK, Homo sapiens, UniProt O14976) | 85% |
| Dual specificity mitogen-activated protein kinase kinase 5 (MAP2K5, Homo sapiens, UniProt Q13163) | 80% |
| Mast/stem cell growth factor receptor Kit (KIT, Homo sapiens, UniProt P10721, V559D/V654A) | 88% |
| Serine/threonine-protein kinase Chk2 (CHEK2, Homo sapiens, UniProt O96017) | 100% |
| Phosphatidylinositol 4,5-bisphosphate 3-kinase catalytic subunit alpha isoform (PIK3CA, Homo sapiens, UniProt P42336, C420R) | 83% |
| Serine/threonine-protein kinase N2 (PKN2, Homo sapiens, UniProt Q16513) | 100% |
| Dual specificity tyrosine-phosphorylation-regulated kinase 1A (DYRK1A, Homo sapiens, UniProt Q13627) | 81% |
| Tyrosine-protein kinase Srms (SRMS, Homo sapiens, UniProt Q9H3Y6) | 86% |
| Phosphatidylinositol 4,5-bisphosphate 3-kinase catalytic subunit alpha isoform (PIK3CA, Homo sapiens, UniProt P42336, I800L) | 68% |
| Casein kinase I isoform gamma-1 (CSNK1G1, Homo sapiens, UniProt Q9HCP0) | 100% |
| Ephrin type-B receptor 2 (EPHB2, Homo sapiens, UniProt P29323) | 100% |
| Vascular endothelial growth factor receptor 3 (FLT4, Homo sapiens, UniProt P35916) | 100% |
| Serine/threonine-protein kinase Chk1 (CHEK1, Homo sapiens, UniProt O14757) | 100% |
| Tyrosine-protein kinase JAK1, JH2 (JAK1, Homo sapiens, UniProt P23458) | 83% |
| Serine/threonine-protein kinase DCLK3 (DCLK3, Homo sapiens, UniProt Q9C098) | 100% |
| cAMP-dependent protein kinase catalytic subunit PRKX (PRKX, Homo sapiens, UniProt P51817) | 85% |
| Tyrosine-protein kinase Yes (YES1, Homo sapiens, UniProt P07947) | 100% |
| Mitogen-activated protein kinase kinase kinase 10 (MAP3K10, Homo sapiens, UniProt Q02779) | 99% |
| Serine/threonine-protein kinase tousled-like 2 (TLK2, Homo sapiens, UniProt Q86UE8) | 100% |
| NT-3 growth factor receptor (NTRK3, Homo sapiens, UniProt Q16288) | 90% |
| Wee1-like protein kinase (WEE1, Homo sapiens, UniProt P30291) | 100% |
| Serine/threonine-protein kinase PLK2 (PLK2, Homo sapiens, UniProt Q9NYY3) | 70% |
| Tyrosine-protein kinase ABL1, non-phosphorylated (ABL1, Homo sapiens, UniProt P00519, T315I) | 75% |
